Measurements pooled from the literature.
A part holds a random share of what one study measured.

Sample 1
Target: Transcription factor SOX-2, HMG box (Sox2, Mus musculus, UniProt P48432, residues 41-119)
UniProt P48432, sequence (41-119, looked up): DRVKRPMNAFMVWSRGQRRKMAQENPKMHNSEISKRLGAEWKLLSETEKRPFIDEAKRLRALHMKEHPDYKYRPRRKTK
Technique: Spec-seq
Form: double-stranded DNA, one strand shown
Medium: in vitro
Concentration: not given
Setting: whole probe, mean of replicates
Reference: not given
Direction: lower = stronger binding
| Oligonucleotide | relative binding energy |
| --- | --- |
| GAGTCGTCTCGTCAGCACCGCTGTTCCGTAGAGCACTCAGGTC | 0.0161 ln ratio |
| GAGTCGTCTCGTCAGCACCATGAAGCCGTAGAGCACTCAGGTC | -0.118 ln ratio |
| GAGTCGTCTCGTCAGCACACGCGTTCCGTAGAGCACTCAGGTC | 1.02 ln ratio |
| GAGTCGTCTCGTCAGCACCATAGGTCCGTAGAGCACTCAGGTC | -0.438 ln ratio |

Sample 2
Target: Centromere-binding protein 1, full length, His-tagged (CBF1, Saccharomyces cerevisiae, UniProt P17106, residues 1-351)
UniProt P17106, sequence (whole entry, looked up): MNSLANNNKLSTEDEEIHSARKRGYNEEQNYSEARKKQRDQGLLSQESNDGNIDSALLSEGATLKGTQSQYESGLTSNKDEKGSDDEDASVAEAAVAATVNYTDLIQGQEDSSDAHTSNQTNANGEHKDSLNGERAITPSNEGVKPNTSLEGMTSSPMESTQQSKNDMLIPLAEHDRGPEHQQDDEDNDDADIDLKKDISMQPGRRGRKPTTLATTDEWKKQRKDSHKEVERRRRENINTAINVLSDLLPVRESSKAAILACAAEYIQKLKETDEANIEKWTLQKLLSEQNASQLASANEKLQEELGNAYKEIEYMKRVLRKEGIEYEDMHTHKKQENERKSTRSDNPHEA
Technique: competition protein-binding microarray
Form: double-stranded DNA, one strand shown
Medium: in vitro
Concentration: 2 µM
Setting: whole 60-bp probe, lowest competitor level
With: Pho4 competitor, 0.05 µM
Direction: higher = stronger binding
| Oligonucleotide | fluorescence intensity [a.u.] |
| --- | --- |
| CATGAGAGCCATTTGCACGTTTACCGTTGAATTCCGGTCTTGATTCGCTTGACGCTGCTG | 112 |
| AAATTACTAAGTTGTACGGTGGGTGACGCCGTATGAGTCTTGATTCGCTTGACGCTGCTG | 67.6 |
| AAAAGAGCGCAAGTACACATGCGATGCAAGGGCGGCGTCTTGATTCGCTTGACGCTGCTG | 64.8 |
| CTAACGAAGGTTTGCCACGTGGGTGACAAGCCAAGTGTCTTGATTCGCTTGACGCTGCTG | 883 |

Sample 3
Target: Histone acetyltransferase KAT6A, both winged helices, GST fusion (KAT6A, Homo sapiens, UniProt Q92794, residues 1-181)
Technique: protein binding microarray
Form: double-stranded DNA, one strand shown
Medium: in vitro
Concentration: not given
Setting: 8-mer, flanks averaged, mean of 2 arrays, mostly near background
Reference: not given
Direction: higher = stronger binding
Target sequence (chain): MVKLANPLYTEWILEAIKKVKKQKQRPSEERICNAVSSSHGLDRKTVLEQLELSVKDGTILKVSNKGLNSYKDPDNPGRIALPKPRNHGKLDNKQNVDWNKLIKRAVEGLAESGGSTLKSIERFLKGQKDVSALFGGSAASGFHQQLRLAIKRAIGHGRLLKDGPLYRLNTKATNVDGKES
| Oligonucleotide | E-score |
| --- | --- |
| ACGCGCTA | 0.355 |
| GTCACCAA | -0.114 |
| CGCAGAAC | 0.248 |
| CGCTCTTA | 0.166 |
| GCCCGTGA | 0.2 |

Mixed results
| Molecule | target | test | test system | conditions | scale | measurement | result |
| --- | --- | --- | --- | --- | --- | --- | --- |
| PhoQ, residues 284 288 289 292 302 303 ASHLAV | PhoP, residues 12 14 15 18 19 TPWTL (Escherichia coli, UniProt P23836) | Sort-seq, item: YFP reporter | E. coli | PhoQ-PhoP variant library, with: 10 µM Mg2+ | reference: high Mg2+ state, higher = stronger signaling | fold induction | 1.14 |

Some of these lines once more (sample 2):
| Oligonucleotide | fluorescence intensity [a.u.] |
| --- | --- |
| CATGAGAGCCATTTGCACGTTTACCGTTGAATTCCGGTCTTGATTCGCTTGACGCTGCTG | 112 |
| AAATTACTAAGTTGTACGGTGGGTGACGCCGTATGAGTCTTGATTCGCTTGACGCTGCTG | 67.6 |
